Assay results pooled from the literature.
Compare with care: the assays were run in different laboratories. ± marks the error that the study gave.

Cc1ncc([N+](=O)[O-])n1CCOC(=O)c1ccccc1  CC50 (pigeon embryo fibroblast (PEF)): 225 µM
Cc1cccc2cc(CNCC3(N4CCCC4)COC3)cnc12  viability (HEK; 30 µM, 48 h; relative to: DMSO): 80.5%
C#CCNS(=O)(=O)c1ccc(CCN(Cc2cc(Cl)ccc2OCCC)C(=O)c2ccc(B3OC(C)(C)C(C)(C)O3)cc2)cc1  reduction of viability (J774.A1; MTT; 10 µM, 4 h): 12%
Brc1ccc(COc2ccccc2CNCc2cccnc2)cc1  cytotoxic concentration (J774.A1): > 12.5 µM
CC(=O)NCc1cc2c(cc1F)C(=O)N(C1CCC(=O)NC1=O)C2 (stereo not shown)  minimum viability (Hep3B; CellTiter-Glo; concentration not given, 72 h): 95.4 ± 2.35%
CO[C@H]1/C=C/O[C@@]2(C)Oc3c(C)c(O)c4c(c3C2=O)C2=NC3(CCN(CC(C)C)CC3)NC2=C(NC(=O)/C(C)=C/C=C/[C@H](C)[C@H](O)[C@@H](C)[C@@H](O)[C@@H](C)[C@H](OC(=O)Nc2c(C)nc3ccccn23)[C@@H]1C)C4=O  intracellular to extracellular ratio (THP-1 derived macrophages; cellular uptake): 17
Fc1ccc2[nH]cc(CNCC3(N4CCC(F)C4)COC3)c2c1 (stereo not shown)  viability (HEK; 30 µM, 48 h, 10% FBS; relative to: DMSO): 51.5%
CC(=O)OC[C@H]1O[C@@H]([Se]Cc2ccc3ccccc3n2)[C@H](OC(C)=O)[C@@H](OC(C)=O)[C@@H]1OC(C)=O  viability (THP-1 macrophages (PMA-differentiated); WST-1; 25 µM, 24 h): 132 ± 4.4%
C[S+](C)[O-]  rosette emergence inhibitory level (WA09 hESC-derived forebrain rosette tissues; concentration not given): > 0.1 % v/v
O=C(O)c1cccc(Cc2ccc3ccn(Cn4ccc5ccc(Cc6cccc(C(=O)O)c6)cc54)c3c2)c1  CC50 (HL2/3 and TZM-bl co-culture; 6 h, 0% serum): 80 µM
Clc1ccc(COc2ccccc2CNCc2ccccc2)cc1  cytotoxic concentration (J774.A1): > 12.5 µM
N=C(N)NCCCCC(=O)N[C@@H](CCC(N)=O)C(=O)N[C@@H](CCc1ccccc1)C(=O)N[C@@H](CCCNC(=N)N)C(O)c1nc2ccccc2s1 (stereo partly shown)  cytotoxicity (Vero E6; CellTiter-Glo; 10 µM, 24 h; relative to: DMSO): not toxic
CC(C)C[C@@H](NC(=O)[C@H](C)NC(=O)CNC(=O)[C@@H](NC=O)C(C)C)C(=O)N[C@@H](C)C(=O)N[C@@H](C(=O)N[C@H](C(=O)N[C@@H](C(=O)N[C@@H](Cc1c[nH]c2ccccc12)C(=O)N[C@H](CC(C)C)C(=O)N[C@@H](Cc1c[nH]c2ccccc12)C(=O)N[C@H](CC(C)C)C(=O)N[C@@H](Cc1c[nH]c2ccccc12)C(=O)N[C@H](CC(C)C)C(=O)N[C@@H](Cc1c[nH]c2ccccc12)C(=O)NCCO)C(C)C)C(C)C)C(C)C  IC50 (P388 (mouse); cytotoxicity, WST-1; 92 h): 0.00614 ± 0.0005 µM
CO[C@H]1/C=C/O[C@@]2(C)Oc3c(C)c(O)c4c(O)c(c(/C=N/N5CCN(C)CC5)c(O)c4c3C2=O)NC(=O)/C(C)=C\C=C\[C@H](C)[C@H](O)[C@@H](C)[C@@H](O)[C@@H](C)[C@H](OC(C)=O)[C@@H]1C  Emax (pooled human hepatocyte co-culture; mRNA induction, measured: CYP2B6 mRNA; 48 h; relative to: vehicle): 10.2 fold
CCc1nc(N)nc(N)c1-c1ccc(Cl)cc1  viability (uninfected human foreskin fibroblasts; MTT; 50 µM, 48 h): 108%
N=C(N)NCCCCC(=O)N[C@@H](CCC(N)=O)C(=O)N[C@@H](Cc1ccccc1)C(=O)N[C@@H](CCCNC(=N)N)C(=O)c1nc2ccccc2s1  cytotoxicity (Vero E6; CellTiter-Glo; 10 µM, 24 h; relative to: DMSO): not toxic
[N-]=[N+]=N[C@]1(CO)O[C@@H](n2ccc(N)nc2=O)[C@@H](F)[C@@H]1O  CC50 (Vero E6; cytotoxicity; 48 (unit not given)): > 100 µM
Cc1cc(C)c(CNC(=O)c2cc(Cl)c3c(c2C)O[C@@](C)([C@H]2CC[C@H](N(C)C)CC2)O3)c(=O)[nH]1  Papp A to B (Caco-2; 100 µM): 0.889 ± 0.048 ×10⁻⁶ cm/s
O=S1(=O)OC(c2ccc(O)cc2)(c2ccc(O)cc2)c2ccccc21  Papp (apical to basolateral) (IPEC-J2 monolayer, 14 d culture; HBSS; 20 mg/L, 120 min, leakage marker): 0.863 ×10⁻⁶ cm/s
COc1cccc(-c2n[nH]c(SCc3ccccn3)n2)c1OC  micronucleated binucleated cells (CHO-WBL; 200 µg/mL, 3 h, with: rat liver S9): 2.1%
Cc1c2c(nn1C)CSCc1cc(n(C)n1)CSc1cc(c3ccccc3c1)OCCCc1c(C(=O)O)n(C)c3c-2c(Cl)ccc13  lowest cytotoxic concentration (LX-2; CCK-8; 24 h): > 100 µM
CC[C@]1(C)C[C@@H](OC(=O)CSc2nnc(N)[nH]2)[C@]2(C)[C@H](C)CC[C@]3(CCC(=O)[C@H]32)[C@@H](C)[C@@H]1O  EC50 (pooled human hepatocyte co-culture; mRNA induction, measured: UGT1A1 mRNA; 48 h): 2.89 µM
CCC[C@H](CC)Oc1ccc(C(=O)OC)cc1NC(=O)c1nnn(-c2cc(OC)c(OCCCCCCOCCOCC(=O)N[C@H](C(=O)N3C[C@H](O)C[C@H]3C(=O)NCc3ccc(-c4scnc4C)cc3)C(C)(C)C)cc2OC)c1C  mRNA level (SNU-C4 cells; RT-qPCR, measured: PXR; 10 µM, 24 h): no effect
COc1ccc2[nH]c([S+]([O-])Cc3ncc(C)c(OC)c3C)nc2c1 (stereo not shown)  Emax (pooled human hepatocyte co-culture; mRNA induction, measured: CYP2B6 mRNA; 48 h; relative to: vehicle): 9.1 fold
Cc1cn([C@H]2C[C@H](N=[N+]=[N-])[C@@H](CO)O2)c(=O)[nH]c1=O  TC50 (human PBMC; cytotoxicity, XTT; BCF01 line): > 50 µM
CO[C@H]1/C=C/O[C@@]2(C)Oc3c(C)c(O)c4c(c3C2=O)C2=NC3(CCN(CC(C)C)CC3)NC2=C(NC(=O)/C(C)=C\C=C\[C@H](C)[C@H](O)[C@@H](C)[C@@H](O)[C@@H](C)[C@H](OC(C)=O)[C@@H]1C)C4=O  intracellular/extracellular ratio (THP-1 derived macrophages; 30 min; relative to: intracellular over extracellular): 26.4
C#CCS(=O)(=O)c1ccc(CCN(Cc2cc(Cl)ccc2OCCC)C(=O)c2csc3ccccc23)cc1  reduction of viability (J774.A1; MTT; 10 µM, 4 h): 14%
Clc1ccc(COc2ccccc2CNCc2cccnc2)cc1  cytotoxic concentration (J774.A1): > 12.5 µM
O=C(CCc1cc(C(=O)c2ccc(OC3CCCC3)cc2O)ccc1OCc1ccc2c(O)noc2c1)NCCOCCOCCOCCOCCOCCOCCNc1cccc2c1C(=O)N(C1CCC(=O)NC1=O)C2=O (stereo not shown)  TD50 (TIGK gingival epithelial cells; cell proliferation, CCK-8; 48 h): 1090 µM
CC1(C)CCC(c2ccc(Cl)cc2)=C(CN2CCN(c3ccc(C(=O)NS(=O)(=O)c4ccc(N[C@H](CCN5CCOCC5)CSc5ccccc5)c(S(=O)(=O)C(F)(F)F)c4)cc3)CC2)C1  fraction of dose absorbed (Caco-2 C2BBe1 monolayers; pulse-chase lymph lipoprotein secretion; medium; 50 % of saturated solubility, 2 h, chylomicron peak interval, oleic acid/2-monoolein): 1.76 ± 1.04%
CN1CCN(c2cnc3c(cc(C(=O)NCc4ccc(Cl)cc4)c(=O)n3CC(=O)N3CC(C)(F)C3)n2)C1=O  CC50 (Vero cells; cell viability, CCK-8; 5 days): > 40 µM
COc1ccc(NC(=S)N/N=C/c2cccc3cc4ccccc4nc23)cc1  viable cells (HeLa; annexin V/PI; IC50, 48 h): 64.4 ± 1.44%
O=C1CCC(N2Cc3cc(CO)c(F)cc3C2=O)C(=O)N1 (stereo not shown)  minimum viability (Hep3B; CellTiter-Glo; concentration not given, 72 h): 89.4 ± 2.24%
c1csc(CNc2cc[nH]n2)c1  cells with structural aberrations (human peripheral blood lymphocytes (female); 1560 µg/mL, 4 h, initial, with: with S9): 1.5%
COc1ccc2c(C[Se][C@@H]3O[C@H](CO)[C@H](O)[C@H](O)[C@H]3O)cc(=O)oc2c1  viability (THP-1 macrophages (PMA-differentiated); WST-1; 100 µM, 24 h): 101 ± 17.2%
c1cc2cc(CNCC3(N4CCCC4)COC3)ccc2[nH]1  viability (HEK; 30 µM, 48 h, 10% FBS; relative to: DMSO): 98.4%
O=C1Nc2ccccc2C1=Cc1ccccn1  CC50 (mouse primary peritoneal macrophages; LDH release): > 100 µM
